Assay results gathered from unrelated publications.
“And” joins repeats or separate records; there may be more than shown. Numbers after ± are the reported error.
Abhd6: Monoacylglycerol lipase ABHD6 (Abhd6, Rattus norvegicus, UniProt Q5XI64)
Sequence of UniProt Q5XI64 (whole entry, looked up): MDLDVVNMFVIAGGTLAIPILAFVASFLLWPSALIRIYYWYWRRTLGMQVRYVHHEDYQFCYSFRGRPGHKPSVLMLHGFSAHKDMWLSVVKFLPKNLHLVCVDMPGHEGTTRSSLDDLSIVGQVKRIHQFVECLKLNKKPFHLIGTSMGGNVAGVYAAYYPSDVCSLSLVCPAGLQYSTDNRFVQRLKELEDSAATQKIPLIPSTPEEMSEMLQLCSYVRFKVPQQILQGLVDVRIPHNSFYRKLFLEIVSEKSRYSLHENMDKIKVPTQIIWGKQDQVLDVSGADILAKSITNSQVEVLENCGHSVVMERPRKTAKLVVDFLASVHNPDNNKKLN
Sequence of UniProt Q8WZ82 (whole entry, looked up): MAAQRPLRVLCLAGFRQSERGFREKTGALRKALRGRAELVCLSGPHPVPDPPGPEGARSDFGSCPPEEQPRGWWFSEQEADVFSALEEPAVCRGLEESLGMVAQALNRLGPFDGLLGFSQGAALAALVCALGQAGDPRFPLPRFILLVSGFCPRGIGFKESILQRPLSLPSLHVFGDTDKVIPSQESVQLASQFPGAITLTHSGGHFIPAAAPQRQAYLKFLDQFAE
Sequence of UniProt Q62351 (whole entry, looked up): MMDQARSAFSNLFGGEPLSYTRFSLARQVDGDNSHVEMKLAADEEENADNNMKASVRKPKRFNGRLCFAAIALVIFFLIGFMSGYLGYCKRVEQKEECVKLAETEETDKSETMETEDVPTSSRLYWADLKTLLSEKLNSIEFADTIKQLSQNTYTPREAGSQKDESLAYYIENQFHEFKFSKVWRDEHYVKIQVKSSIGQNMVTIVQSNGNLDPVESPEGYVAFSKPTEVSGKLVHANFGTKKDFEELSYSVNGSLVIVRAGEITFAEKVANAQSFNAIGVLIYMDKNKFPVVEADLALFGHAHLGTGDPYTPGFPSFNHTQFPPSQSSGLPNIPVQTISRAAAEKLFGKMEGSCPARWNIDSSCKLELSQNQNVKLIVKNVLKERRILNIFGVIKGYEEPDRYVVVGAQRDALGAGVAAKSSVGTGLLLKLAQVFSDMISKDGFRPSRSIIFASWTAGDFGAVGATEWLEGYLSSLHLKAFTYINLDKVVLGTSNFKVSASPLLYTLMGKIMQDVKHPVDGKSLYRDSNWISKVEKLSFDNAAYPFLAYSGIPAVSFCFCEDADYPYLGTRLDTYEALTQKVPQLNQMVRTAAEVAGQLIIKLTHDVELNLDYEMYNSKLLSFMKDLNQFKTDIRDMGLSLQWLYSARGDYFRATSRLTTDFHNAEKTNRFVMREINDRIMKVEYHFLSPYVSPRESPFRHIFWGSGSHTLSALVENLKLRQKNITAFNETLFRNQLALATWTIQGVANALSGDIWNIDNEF
Sequence of UniProt P28335 (whole entry, looked up): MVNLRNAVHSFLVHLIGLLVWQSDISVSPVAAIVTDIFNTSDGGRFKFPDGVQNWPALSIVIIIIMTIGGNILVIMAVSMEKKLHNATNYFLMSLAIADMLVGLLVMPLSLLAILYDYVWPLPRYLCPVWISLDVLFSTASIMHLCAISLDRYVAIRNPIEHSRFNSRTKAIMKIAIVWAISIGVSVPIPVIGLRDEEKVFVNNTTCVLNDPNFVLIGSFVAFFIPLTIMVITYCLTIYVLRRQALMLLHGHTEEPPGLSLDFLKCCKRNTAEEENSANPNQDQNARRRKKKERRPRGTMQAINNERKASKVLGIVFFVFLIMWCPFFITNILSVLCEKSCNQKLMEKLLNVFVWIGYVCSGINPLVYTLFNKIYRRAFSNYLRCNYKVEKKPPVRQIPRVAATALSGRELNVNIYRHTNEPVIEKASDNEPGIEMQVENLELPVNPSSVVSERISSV
Sequence of UniProt P26358 (whole entry, looked up): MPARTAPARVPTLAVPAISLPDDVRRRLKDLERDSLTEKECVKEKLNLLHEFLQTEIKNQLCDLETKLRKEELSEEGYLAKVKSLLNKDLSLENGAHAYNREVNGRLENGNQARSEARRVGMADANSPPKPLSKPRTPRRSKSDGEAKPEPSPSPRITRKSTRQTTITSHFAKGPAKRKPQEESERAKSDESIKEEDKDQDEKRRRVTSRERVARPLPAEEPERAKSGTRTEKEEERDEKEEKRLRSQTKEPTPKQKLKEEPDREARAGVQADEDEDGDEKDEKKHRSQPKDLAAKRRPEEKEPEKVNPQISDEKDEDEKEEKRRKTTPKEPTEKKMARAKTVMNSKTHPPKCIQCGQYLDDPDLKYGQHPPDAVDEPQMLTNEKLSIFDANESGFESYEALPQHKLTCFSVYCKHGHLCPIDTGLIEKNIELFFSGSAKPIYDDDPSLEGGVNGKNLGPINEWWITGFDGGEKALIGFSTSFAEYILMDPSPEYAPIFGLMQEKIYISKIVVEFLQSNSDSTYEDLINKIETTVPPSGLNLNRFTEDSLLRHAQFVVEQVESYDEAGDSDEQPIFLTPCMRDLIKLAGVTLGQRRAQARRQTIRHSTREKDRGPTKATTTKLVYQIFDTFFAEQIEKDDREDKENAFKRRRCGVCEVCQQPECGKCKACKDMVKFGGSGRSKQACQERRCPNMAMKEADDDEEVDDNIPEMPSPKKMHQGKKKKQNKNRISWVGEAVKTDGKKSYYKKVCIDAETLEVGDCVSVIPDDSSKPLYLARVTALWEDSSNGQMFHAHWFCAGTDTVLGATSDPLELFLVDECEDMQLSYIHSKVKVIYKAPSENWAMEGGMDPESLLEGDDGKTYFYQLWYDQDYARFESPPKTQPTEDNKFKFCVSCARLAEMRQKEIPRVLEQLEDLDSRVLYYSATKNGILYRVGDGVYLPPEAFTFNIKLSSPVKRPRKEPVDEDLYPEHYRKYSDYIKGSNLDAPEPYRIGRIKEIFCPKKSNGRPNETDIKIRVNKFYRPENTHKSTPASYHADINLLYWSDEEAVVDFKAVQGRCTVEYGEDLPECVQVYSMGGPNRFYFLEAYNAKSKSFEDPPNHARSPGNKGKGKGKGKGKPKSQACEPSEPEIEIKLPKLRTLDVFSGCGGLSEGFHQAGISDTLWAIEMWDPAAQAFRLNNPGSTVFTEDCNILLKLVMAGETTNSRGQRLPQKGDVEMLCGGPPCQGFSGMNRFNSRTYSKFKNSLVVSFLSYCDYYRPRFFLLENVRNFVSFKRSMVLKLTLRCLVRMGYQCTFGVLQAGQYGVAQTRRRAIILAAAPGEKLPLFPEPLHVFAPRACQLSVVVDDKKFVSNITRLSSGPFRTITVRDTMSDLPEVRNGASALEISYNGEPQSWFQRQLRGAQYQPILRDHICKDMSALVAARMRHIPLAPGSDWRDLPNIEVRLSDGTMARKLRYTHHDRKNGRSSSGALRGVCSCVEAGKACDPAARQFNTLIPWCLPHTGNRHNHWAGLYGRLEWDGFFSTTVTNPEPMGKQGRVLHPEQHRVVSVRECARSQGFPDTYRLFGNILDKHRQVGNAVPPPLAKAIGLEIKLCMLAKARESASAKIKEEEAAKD
Sequence of UniProt Q15303 (whole entry, looked up): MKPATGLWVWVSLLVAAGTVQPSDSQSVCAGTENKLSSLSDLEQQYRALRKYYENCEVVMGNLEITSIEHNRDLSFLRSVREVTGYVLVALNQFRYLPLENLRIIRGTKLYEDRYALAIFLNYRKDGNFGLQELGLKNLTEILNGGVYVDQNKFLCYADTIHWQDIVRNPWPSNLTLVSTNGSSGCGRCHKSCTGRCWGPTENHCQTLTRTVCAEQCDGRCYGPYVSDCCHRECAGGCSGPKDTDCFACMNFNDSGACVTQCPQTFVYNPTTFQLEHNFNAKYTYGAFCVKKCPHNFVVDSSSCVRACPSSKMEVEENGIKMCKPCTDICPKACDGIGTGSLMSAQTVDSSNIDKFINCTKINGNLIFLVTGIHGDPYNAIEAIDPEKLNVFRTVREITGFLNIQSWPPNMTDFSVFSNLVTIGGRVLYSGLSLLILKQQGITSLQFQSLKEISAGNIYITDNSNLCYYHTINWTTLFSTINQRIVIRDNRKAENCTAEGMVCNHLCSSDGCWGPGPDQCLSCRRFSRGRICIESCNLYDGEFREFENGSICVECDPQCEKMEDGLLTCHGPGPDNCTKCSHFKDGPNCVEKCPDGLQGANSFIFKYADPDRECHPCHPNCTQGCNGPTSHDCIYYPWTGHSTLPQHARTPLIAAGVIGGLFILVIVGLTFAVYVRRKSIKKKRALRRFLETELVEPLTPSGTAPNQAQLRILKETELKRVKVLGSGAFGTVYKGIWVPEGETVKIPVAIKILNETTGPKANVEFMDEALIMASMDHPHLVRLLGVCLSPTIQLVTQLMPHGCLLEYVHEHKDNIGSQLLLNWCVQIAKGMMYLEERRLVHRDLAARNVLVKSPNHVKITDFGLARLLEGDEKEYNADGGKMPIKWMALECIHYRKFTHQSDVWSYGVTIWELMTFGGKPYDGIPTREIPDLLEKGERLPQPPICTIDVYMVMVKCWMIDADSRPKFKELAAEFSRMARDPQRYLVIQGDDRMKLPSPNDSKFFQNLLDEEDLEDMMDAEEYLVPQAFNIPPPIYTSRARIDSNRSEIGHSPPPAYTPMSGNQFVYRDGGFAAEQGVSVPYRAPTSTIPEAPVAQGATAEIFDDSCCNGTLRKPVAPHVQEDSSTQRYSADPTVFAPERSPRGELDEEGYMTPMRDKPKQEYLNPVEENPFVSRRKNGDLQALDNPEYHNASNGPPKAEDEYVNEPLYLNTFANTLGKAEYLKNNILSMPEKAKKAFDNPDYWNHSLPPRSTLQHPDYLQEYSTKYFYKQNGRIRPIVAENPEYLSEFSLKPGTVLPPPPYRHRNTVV
Sequence of UniProt P62258 (whole entry, looked up): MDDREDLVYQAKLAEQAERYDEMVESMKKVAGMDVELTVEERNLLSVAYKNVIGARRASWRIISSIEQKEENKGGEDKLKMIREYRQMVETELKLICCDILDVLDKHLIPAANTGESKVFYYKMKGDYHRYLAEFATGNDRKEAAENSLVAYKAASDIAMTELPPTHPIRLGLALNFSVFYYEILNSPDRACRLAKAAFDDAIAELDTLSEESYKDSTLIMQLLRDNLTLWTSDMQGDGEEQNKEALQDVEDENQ

COc1cc(Nc2ncc(F)c(Nc3ccc4c(n3)NC(=O)C(C)(C)O4)n2)cc(OC)c1OC  inhibition (IKBKE (Homo sapiens, UniProt Q14164); KINOMEscan; 10 µM, IKK-epsilon): 99%
Nc1nc2c(ncn2[C@@H]2O[C@@H]3COP(=O)(O)O[C@H]4[C@@H](O)[C@H](n5cnc6c(=O)[nH]c(N)nc65)O[C@@H]4COP(=O)(O)O[C@H]3[C@H]2O)c(=O)[nH]1  -TΔS (Cell cycle histidine kinase CckA, G318A; cytoplasmic region (Caulobacter vibrioides, UniProt Q9X688, G318A); binding, ITC; 12 °C, added: ADP 5 mM): -6.7 kcal/mol
[2H]c1c([2H])c([C@]2([2H])CCCN2C(=O)C(C)(C)Oc2ccc3cn[nH]c3c2)c([2H])c([2H])c1C([2H])([2H])[2H]  remaining binding (CDK2 (Homo sapiens, UniProt P24941); KINOMEscan; 1 µM; baseline: DMSO control): 100%
Clc1cc2c(cc1Cl)Oc1cc(Cl)c(Cl)cc1O2  fold induction (Uncharacterized protein (Takifugu rubripes, UniProt Q4JHL5); reporter gene, agonist, dual-luciferase; COS-7; 0.1 µM, 28 h; baseline: DMSO): 2.58
CC[C@H](CO)Nc1nc(NCc2ccc(-c3ccccn3)cc2)c2ncn(C(C)C)c2n1  binding score (CSNK1E (Homo sapiens, UniProt P49674); KINOMEscan competition binding; 10 µM, primary screen; direction not given): 0.35
O=C(c1ccc(Cl)cc1)N1CCN2C(=O)N(OC(=O)N3CCOc4ccccc43)C(=O)C2C1 (centres unmarked)  peptide ratio (OVCA2 (Homo sapiens, UniProt Q8WZ82); MS-based ABPP; SW-620 conditioned medium; 10 µM, 1 h, 37 °C; baseline: compound over DMSO, lower = more inhibition): 0.9 and 1.04 and 0.98 and 0.86
CCCCCCCCCC(=O)CC(=O)Nc1ccccc1  Hill slope (qscR, DNA-bound (Pseudomonas aeruginosa, UniProt G3XD77); DNA binding, ligand, EMSA; saturating ligand): 1.3
COc1cc2c(NC3CCN(C)CC3)cc(-c3ccc(C)o3)nc2cc1OCCCN1CCCC1  inhibition (DNMT1 (Homo sapiens, UniProt P26358); enzyme activity; 137.17 nM): -11.5%
C[C@H]1CN(c2n[nH]c3nc(N[C@H]4CC[C@H](NS(=O)(=O)CCC(F)(F)F)CC4)ncc23)CCO1  remaining binding (14-3-3 protein epsilon (Homo sapiens, UniProt P62258); Kinobeads competition, item: YWHAE; 0.16 µM, unit not given; baseline: vehicle): 1.03
CC=O  kcat/Km decrease (ADH1 H48S Saccharomyces cerevisiae; enzyme activity, substrate; pH 7.3; baseline: wild type): 3 fold
CCN1CCC[C@H]1CNC(=O)c1c(O)c(Cl)cc(Cl)c1OC  log2 fold change (PRLHR (Homo sapiens, UniProt P49683); receptor activation, TANGO luminescence; concentration not given, unconfirmed screen; baseline: vehicle control): 0.007
CN(C(=O)n1cnc(-c2ccc[n+]([O-])c2)c1)C1CCCCC1  fold change (Abhd6; enzyme activity, ABPP; rat, brain; oral, 30 mg/kg/day, 1 days; baseline: vehicle): -8.4
O=C(CCCOc1ccc(Cl)cc1)NC1CCOC1=O (centres unmarked)  melting temperature (qscR (Pseudomonas aeruginosa, UniProt G3XD77); ligand, differential scanning fluorimetry; ligand complex): 52.9 °C
C[C@]1(COC(=O)c2cc(Cl)ccc2O)[C@H](C(=O)O)N2C(=O)/C(=C/c3ccccn3)[C@H]2S1(=O)=O  kinact (Beta-lactamase (blaOXA-33, Acinetobacter baumannii, UniProt Q8RLA6); inhibitor): 0.04 ± 0.014 s⁻¹
COc1cccc(OC)c1C(=O)N[C@@H]1C(=O)N2[C@@H]1SC(C)(C)[C@@H]2C(=O)O  kinact/KI (Penicillin-binding protein 2X (Streptococcus pneumoniae R6, UniProt P59676); inhibitor; Streptococcus pneumoniae): 26000 ± 4900 M⁻¹ s⁻¹
COc1ccc(F)cc1C(=O)NCc1ccc(-c2nn([C@@H](C)C(F)(F)F)c(N)c2C(N)=O)cc1  selectivity ratio (ERBB4 (Homo sapiens, UniProt Q15303); enzyme activity; baseline: ERBB4 over BTK): 4.2
O=C(Nc1cnccc1Cl)N1CCN(Cc2ccc3c(c2)OC(F)(F)O3)CC1  inhibition (Abhd6; probe labelling, inhibitor, competitive ABPP with azido-FP probe, item: ABHD6; rat brain membrane fraction; 10 µM): 18.1%
CC[C@@H](C)[C@@H](NC(=O)[C@@H](Cc1ccc(O)cc1)NC(=O)[C@H]1CCCN1C(=O)[C@@H](CCCNC(=N)N)NC(=O)[C@H](N)Cc1c[nH]cn1)C(=O)N[C@H](C)C(=O)N[C@H](Cc1c[nH]cn1)C(=O)N[C@H](CCCNC(=N)N)C(=O)N[C@H](CCCCNC(=O)c1cccc(S(=O)(=O)F)c1)C(=O)N[C@H](Cc1ccc(O)cc1)C(=O)N[C@H](CO)C(=O)N[C@H](Cc1ccccc1)C(N)=O  surface expression (Transferrin receptor protein 1 (Tfrc, Mus musculus, UniProt Q62351); flow cytometry; DC2.4; 24 h, pH 7.4, unit not given; baseline: 0 h): 0.565 and 0.576
COc1cc(N)c(Cl)cc1C(=O)NC1CN2CCC1CC2 (centres unmarked)  log2 fold change (G-protein coupled receptor 161 (GPR161, Homo sapiens, UniProt Q8N6U8); β-arrestin recruitment, TANGO luminescence, item: GPR161; concentration not given; baseline: basal luminescence): 0.03
O=C(Nc1cccnn1)N1CCC(=Cc2cccc(Oc3ccc(C(F)(F)F)cn3)c2)CC1  inhibition (Abhd6; probe labelling, inhibitor, competitive ABPP with azido-FP probe, item: ABHD6; rat brain soluble fraction; 0.1 µM): 5.1%
CCOC(=O)COc1ccc2c(=O)c3ccccc3oc2c1  Vmax (ache (Electrophorus electricus, UniProt O42275); enzyme activity, inhibitor, Lineweaver-Burk plot; 0.84 µM; higher = faster reaction): 0.0053 a.u.
Nc1ncnc2c1ncn2[C@@H]1O[C@H](COP(=O)(O)OP(=O)(O)OP(=O)(O)O)[C@@H](O)[C@H]1O  fluorescence ratio (matB (Rhodopseudomonas palustris, UniProt Q6ND88, C106A/K488A/Q457C/R286C); ATP binding; pH 7.0, 100 mM NaCl; baseline: bound over unbound): 3.9
COc1ccc(N2C(=O)N(c3c(C)cccc3Cl)Cc3cnc(Nc4ccc(C5CCN(C)CC5)cc4OC)nc32)nc1  inhibition (NTRK1 (Homo sapiens, UniProt P04629); kinase activity, inhibitor; 0.5 µM, kinase TRKA): 6%
CCCc1csc2c1-c1nc(SCC(=O)C(C)(C)C)ncc1CC2  active site volume (Dual specificity protein phosphatase 10, catalytic domain (Homo sapiens, UniProt Q9Y6W6); X-ray co-crystal structure; concentration not given): 48.3 ± 2.9 Å³
CC(=O)C1C(=O)c2ccccc2C1=O  IC50 (NR1H3 (Homo sapiens, UniProt Q13133); coactivator recruitment): inactive
CN1CCN(c2cc(-c3ccncc3)c(-c3ccc4ccccc4c3)nn2)CC1  activation (HTR2C (Homo sapiens, UniProt P28335); agonist, FLIPR; 12.5 µM): 4.4%
